Assay results pooled from the literature.
Each line is one published result; not all experiments were run side by side. ± marks the error that the study gave.

SMILES	test	system	setting	tissue uptake
O=C(NCC1OC2CCC=CCCC2O1)c1ccc(COCCOCCOCC[18F])cc1 (stereo not shown)	–	healthy female BALB/c nude mice, skin	intravenous, 7.4 MBq per mouse, 60 min	2.5 ± 0.7 %ID/g
COc1ccc(Nc2nc(Nc3ccc(OCCOCCOCC[18F])cc3)ncc2Br)cc1	–	ICR mice, S180 tumour-bearing, muscle	intravenous, 370 kBq, 120 min	2.65 ± 0.2 %ID/g
O=C([O-])CN1CCN(CC(=O)[O-])CCN(CC(=O)NC[C@H]2CC[C@H](C(=O)N[C@H](Cc3cnc4ccccc4c3)C(=O)NCCCC[C@H](NC(=O)N[C@@H](CCC(=O)O)C(=O)O)C(=O)O)CC2)CCN(CC(=O)[O-])CC1.[64Cu+2]	ex vivo gamma counting	22Rv1 tumour-bearing mice, spleen	intravenous, 0.74 MBq, 24 h post-injection	4.56 %ID/g
Cc1cc(C)n(CCN(CCN)CCCCCCNC(=O)[C@@H](N)Cc2c[nH]cn2)n1.[99Tc+].[C-]#[O+].[C-]#[O+].[C-]#[O+]	–	BALB/c nude mice, A549 xenograft, blood	intravenous, 15 min	2.8 ± 0.58 %IA/g
CC(C)C[C@H](NC(=O)[C@@H](CCCCNC(=O)[C@@H](Cc1ccccc1)NC(=O)CCCCCCCNC(=O)CN1CCN(CC(=O)O)CCN(CC(=O)O)CCN(CC(=O)O)CC1)NC(=O)[C@H](Cc1ccc(O)cc1)NC(=O)[C@H](CO)NC(=O)[C@H](Cc1c[nH]c2ccccc12)NC(=O)[C@H](Cc1c[nH]cn1)NC(=O)[C@@H]1CCC(=O)N1)C(=O)N[C@@H](CCCNC(=N)N)C(=O)N1CCC[C@H]1C(=O)NCC(N)=O [indium-111 labelled]	–	male athymic nude mice, DU-145 xenograft, blood	intravenous, 1 h, together with: 10 µg unlabelled blocking peptide	0.46 ± 0.09 %ID/g
CCCC[C@H](NC(=O)CNC(=O)CNC(=O)[C@H](CCCCNC(=O)[C@H](CC(=O)O)NC(=O)C(C)c1ccc(CC(C)C)cc1)NC(=O)CN1CCN(CC(=O)O)CCN(CC(=O)O)CCN(CC(=O)O)CC1)C(=O)N[C@H]1CC(=O)NCCCC[C@@H](C(N)=O)NC(=O)[C@H](Cc2c[nH]c3ccccc23)NC(=O)[C@H](CCCNC(=N)N)NC(=O)[C@@H](Cc2ccccc2)NC(=O)[C@H](Cc2c[nH]cn2)NC1=O (stereo partly shown) [lutetium-177 labelled]	–	C57 mice, tumour-bearing, lung	intravenous, 0.037 MBq, 4 h	0.58 ± 0.12 %ID/g
CCCC[C@H](NC(=O)CCCCCCCNC(=O)CN1CCN(CC(=O)O)CCN(CC(=O)O)CC1)C(=O)N[C@H]1CC(=O)NCCCC[C@@H](C(N)=O)NC(=O)[C@H](Cc2c[nH]c3ccccc23)NC(=O)[C@H](CCCNC(=N)N)NC(=O)[C@@H](Cc2ccccc2)NC(=O)[C@H](Cc2c[nH]cn2)NC1=O [fluorine-18 labelled]	–	C57 mice, B16/F10 melanoma, intestines	intravenous, 0.37 MBq, 1 h	2.26 ± 0.52 %ID
COc1ccc2c(c1)C(C)(C)C(/C=C/C1=C(Oc3ccc(C(=O)NCCCCOc4cc(CN(Cc5ccccn5)Cc5ccccn5)cc(CN(Cc5ccccn5)Cc5ccccn5)c4)cc3)C(=C/C=C3/N(CCCCS(=O)(=O)[O-])c4ccc(OC)cc4C3(C)C)CCC1)=[N+]2CCCCS(=O)(=O)[O-].O=[N+]([O-])[O-].O=[N+]([O-])[O-].[99Tc+].[C-]#[O+].[C-]#[O+].[C-]#[O+].[Zn+2]	–	BALB/c mice, S. aureus myositis, pancreas	12 h post-injection	1.22 %ID/g
O=C(NCC1OC2CCC=CCCC2O1)c1ccc([18F])nc1 (stereo not shown)	–	female BALB/c nude mice, LS174T tumour, blood	intravenous, 60 min, together with: unmodified CC49 24 h before	0.8 ± 0.2 %ID/g
N#C[C@@H]1CCCN1C(=O)CNC(=O)c1ccnc2ccc(OCCCN3CCN(C(=O)CCc4ccc5c(c4)CN4CCN(Cc6cc(CCC(=O)O)ccc6O)CC(=O)[O][Al-]([18F])([O]C(=O)C4)[O]5)CC3)cc12 (stereo partly shown)	–	BALB/c nude mice, U-87 MG xenograft, kidney	2 h	1.27 ± 0.24 %ID/g
CCCC[C@H](NC(=O)COCCOCCNC(=O)CN1CCN(CC(=O)O)CCN(CC(=O)O)CC1)C(=O)N[C@H]1CC(=O)NCCCC[C@@H](C(N)=O)NC(=O)[C@H](Cc2c[nH]c3ccccc23)NC(=O)[C@H](CCCNC(=N)N)NC(=O)[C@@H](Cc2ccccc2)NC(=O)[C@H](Cc2c[nH]cn2)NC1=O [fluorine-18 labelled]	–	C57 mice B16-F10 melanoma, brain	intravenous, 0.37 MBq, 0.5 h	0.14 ± 0.02 %ID/g
CCCC[C@H](NC(=O)CNC(=O)CNC(=O)[C@H](CCCCNC(=O)[C@H](CCN)NC(=O)C(C)c1ccc(CC(C)C)cc1)NC(=O)CN1CCN(CC(=O)O)CCN(CC(=O)O)CCN(CC(=O)O)CC1)C(=O)N[C@H]1CC(=O)NCCCC[C@@H](C(N)=O)NC(=O)[C@H](Cc2c[nH]c3ccccc23)NC(=O)[C@H](CCCNC(=N)N)NC(=O)[C@@H](Cc2ccccc2)NC(=O)[C@H](Cc2c[nH]cn2)NC1=O (stereo partly shown) [lutetium-177 labelled]	–	C57 mice, tumour-bearing, skin	2 h	0.95 ± 0.08 %ID/g
COc1ccc(Nc2nc(Nc3ccc(OCCOCC[18F])cc3)ncc2Br)cc1	–	ICR mice, S180 tumour, stomach	intravenous, 370 kBq, 30 min	0.51 ± 0.01 %ID

Repeated from above:
SMILES	test	system	setting	tissue uptake
CCCC[C@H](NC(=O)CCCCCCCNC(=O)CN1CCN(CC(=O)O)CCN(CC(=O)O)CC1)C(=O)N[C@H]1CC(=O)NCCCC[C@@H](C(N)=O)NC(=O)[C@H](Cc2c[nH]c3ccccc23)NC(=O)[C@H](CCCNC(=N)N)NC(=O)[C@@H](Cc2ccccc2)NC(=O)[C@H](Cc2c[nH]cn2)NC1=O [fluorine-18 labelled]	–	C57 mice, B16/F10 melanoma, intestines	intravenous, 0.37 MBq, 1 h	2.26 ± 0.52 %ID
O=C([O-])CN1CCN(CC(=O)[O-])CCN(CC(=O)NC[C@H]2CC[C@H](C(=O)N[C@H](Cc3cnc4ccccc4c3)C(=O)NCCCC[C@H](NC(=O)N[C@@H](CCC(=O)O)C(=O)O)C(=O)O)CC2)CCN(CC(=O)[O-])CC1.[64Cu+2]	ex vivo gamma counting	22Rv1 tumour-bearing mice, spleen	intravenous, 0.74 MBq, 24 h post-injection	4.56 %ID/g
